# Experimental data gathered from unrelated publications.
# Each line is one published result; not all experiments were run side by side.
# Chain of UniProt P41143 (whole entry, looked up): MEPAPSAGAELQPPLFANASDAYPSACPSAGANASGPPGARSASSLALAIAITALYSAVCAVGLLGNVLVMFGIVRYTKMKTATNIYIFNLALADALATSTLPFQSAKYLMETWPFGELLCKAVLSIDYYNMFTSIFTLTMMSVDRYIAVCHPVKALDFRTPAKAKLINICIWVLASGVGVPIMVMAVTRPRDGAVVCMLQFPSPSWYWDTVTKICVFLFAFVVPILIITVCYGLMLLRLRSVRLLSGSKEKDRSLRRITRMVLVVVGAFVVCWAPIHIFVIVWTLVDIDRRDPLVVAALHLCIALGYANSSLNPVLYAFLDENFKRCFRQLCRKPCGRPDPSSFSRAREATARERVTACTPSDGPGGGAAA
# Chain of UniProt P37136 (whole entry, looked up): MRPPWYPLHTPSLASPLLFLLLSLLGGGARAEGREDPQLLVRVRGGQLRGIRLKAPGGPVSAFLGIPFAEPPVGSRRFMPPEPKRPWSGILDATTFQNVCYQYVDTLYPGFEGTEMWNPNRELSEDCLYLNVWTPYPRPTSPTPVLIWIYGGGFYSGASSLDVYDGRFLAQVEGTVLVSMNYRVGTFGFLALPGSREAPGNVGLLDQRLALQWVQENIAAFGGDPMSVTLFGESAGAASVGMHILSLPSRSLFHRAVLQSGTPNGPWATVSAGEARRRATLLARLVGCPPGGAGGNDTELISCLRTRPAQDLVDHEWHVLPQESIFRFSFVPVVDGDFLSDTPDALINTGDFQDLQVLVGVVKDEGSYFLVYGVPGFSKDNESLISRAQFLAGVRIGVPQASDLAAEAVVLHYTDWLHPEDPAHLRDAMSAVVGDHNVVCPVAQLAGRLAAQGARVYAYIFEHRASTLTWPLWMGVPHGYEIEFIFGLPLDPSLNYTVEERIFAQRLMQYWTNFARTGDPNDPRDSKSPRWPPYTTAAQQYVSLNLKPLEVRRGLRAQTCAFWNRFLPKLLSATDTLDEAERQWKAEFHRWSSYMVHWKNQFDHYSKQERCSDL
Molecule,target or system,test,system,setting,scale,endpoint,value
vorinostat glucuronide,,,"patients, plasma","oral, 300 mg vorinostat three times daily, 3 days, together with: idarubicin",,Cmax,3.33 µM
chicoric acid,IPEC-J2 monolayer,,,together with: chloroquine 30 µM,baseline: without inhibitor,Papp basolateral to apical,no effect
semaglutide,,refers to: not recovered or resolved,"human, safety analysis set","concentration not given, 32 weeks, run-in",,participants with adverse events,26%
SNC80,"Delta-type opioid receptor, with Gi3 (OPRD1, Homo sapiens, UniProt P41143)","Gi3 activation, agonist",,,,EC50,3.31 nM
deucravacitinib,,,human,"6 mg twice daily, multiple dose",,fatigue incidence,0%
phoxim-oxon,"Acetylcholinesterase (Ache, Rattus norvegicus, UniProt P37136)","enzyme activity, inhibitor, Ellman","rat, postnatal day 1, lung homogenate","15 min, 37 °C",,IC50,24 nM
maraviroc,,,"black CYP3A5 poor metabolizers, plasma",300 mg twice daily,,C12,59.8 ng/mL
(+)-catechin gallate,Caco-2 monolayer,transwell permeability,,"1000 ng/µL, 4 h, apical application",,mass in basolateral compartment,not detected

# Some of these lines once more:
Molecule,target or system,test,system,setting,scale,endpoint,value
phoxim-oxon,"Acetylcholinesterase (Ache, Rattus norvegicus, UniProt P37136)","enzyme activity, inhibitor, Ellman","rat, postnatal day 1, lung homogenate","15 min, 37 °C",,IC50,24 nM
